Measurements of several laboratories.
Compare with care: the assays were run in different laboratories. ± gives the spread as reported.
CAMK1: Calcium/calmodulin-dependent protein kinase type 1 (CAMK1, Homo sapiens, UniProt Q14012)

SMILES	tested on	test	system	conditions	how to read	measurement	value
CC(C)[C@H]1NC(=O)C[C@H]2/C=C/CCSSC[C@@H](NC1=O)C(=O)N[C@H](Cc1cccc3ccccc13)C(=O)NCC(=O)O2	CAMK1	enzyme activity, inhibitor		10 µM		inhibition	6.3%
O=C(CN1CN(c2ccccc2)C2(CCN(C(=O)c3cnc4[nH]ncc4c3)CC2)C1=O)NCC(F)(F)F	Epidermal growth factor receptor (EGFR, Homo sapiens, UniProt P00533, del746-750)	inhibitor		concentration not given		inhibition	< 50%
O=C1NC(=O)c2c1c1cc(F)c[n+]3c1c1c2c2cc(O)ccc2[n]1[Ru-4]312([N]=C=S)[S+]3CC[S+]1CC[S+]2CC3 (stereo not drawn)	CAMK1	enzyme activity		100 nM, human enzyme, with: 10 µM ATP	reference: untreated	remaining activity	79%
COc1ccccc1-c1n[nH]c2nc(NC3CCN(C(=O)Cc4ccc(F)cc4F)CC3)ncc12		bead binding, competition bead pull-down, refers to: LINJ.27.1220	Leishmania donovani extract	10 µM	reference: vehicle	relative abundance	1.03
CN(C)[C@H]1C[C@@]23CC[C@@]4(O2)C(=CC[C@]2(C)[C@@H](c5ccc6ccncc6c5)CC[C@H]24)C=C3[C@@H](O)[C@@H]1O	Non-receptor tyrosine-protein kinase TYK2, JH2 pseudokinase domain (TYK2, Homo sapiens, UniProt P29597)	ATP probe labelling, inhibitor, KiNativ profiling		1 µM		inhibition	-0.1%
CC(=O)NC[C@@H]1[C@@H](O)C[C@H]2[C@H](O)C[C@@H](CO)N12	Spodoptera litura β-N-acetylglucosaminidase		crude enzyme	0.214 µM, run 2, with: p-nitrophenyl GlcNAc		inhibition	33.9%
C[C@H](NCc1ccc(-c2ccc(C(F)(F)F)cc2)cc1)C(N)=O	Insulin receptor (INSR, Homo sapiens, UniProt P06213)	kinase activity, SafetyScreen panel		1 µM, with: 200 µg/mL poly(Glu:Tyr)		inhibition	-15%
CC(C)CC(O)(CC(C)C)c1cn(C(=O)N2CCCC2)nn1	Phospholipase DDHD1 (Ddhd1, Mus musculus, UniProt Q80YA3)	probe labelling, inhibitor, competitive ABPP-SILAC, refers to: Ddhd1	mouse T cells	concentration not given, 4 h, protein level	reference: treated over DMSO cells, lower = stronger inhibition	median SILAC activity ratio	1.22
N[C@H](C(=O)N1CCCC1)C1CCN(c2nccc3c(-c4ncc(Cl)cc4Cl)cccc23)CC1	Protein-arginine deiminase type-2 (PADI2, Homo sapiens, UniProt Q9Y2J8)	enzyme activity, inhibitor		24 µM, with: Ca2+ 0.25 mM		inhibition	102%
O=C(O)c1ccccc1/C=N/Nc1nc(-c2ccccc2Cl)cs1	Tyrosine-protein kinase ITK/TSK (ITK, Homo sapiens, UniProt Q08881)	enzyme activity, inhibitor		1 µM		inhibition	22.4%
COc1ccc(F)cc1S(=O)(=O)Nc1cnc2c(c1)C(=O)NCCO2	Alpha-2B adrenergic receptor (ADRA2B, Homo sapiens, UniProt P18089)	ligand displacement, radioligand		10 µM		inhibition	6%
CS(C)(=O)=Nc1ccc(-c2ccc(-c3nc4cc(O[C@@H]5CO[C@H]6[C@@H]5OC[C@H]6O)[nH]c4cc3F)cc2)cc1	Serine/threonine-protein kinase N2 (PKN2, Homo sapiens, UniProt Q16513)	enzyme activity, inhibitor		10 µM		inhibition	15%
CC[C@H](C)[C@H](NC(=O)[C@H](CO)NC(=O)[C@H](Cc1ccc(O)cc1)NC(=O)[C@H](Cc1ccc(O)cc1)NC(=O)[C@H](CC(N)=O)NC(=O)CNC(=O)[C@H](CO)NC(=O)[C@H](Cc1ccc(O)cc1)NC(=O)[C@H](CO)NC(=O)[C@H](CO)NC(=O)[C@H](CC(N)=O)NC(=O)COCCOCCNC(=O)CN1CCN(CC(=O)O)CCN(CC(=O)O)CCN(CC(=O)O)CC1)C(=O)N[C@@H](CC(C)C)C(N)=O [copper-64 labelled]		dynamic PET	mouse, tamoxifen-induced PDAC, tumor	intravenous, 0.1 µg/mouse, 1.6 min		tumour uptake	14.9 %ID/mL
CN(/N=C/c1ccccc1C(=O)O)c1nc(-c2ccccc2Cl)cs1	Cyclin-dependent kinase 6, with cyclin D1 (CDK6, Homo sapiens, UniProt Q00534)	enzyme activity, inhibitor		1 µM		inhibition	-5.92%
O=C1NC2(CC2)COc2ncc(F)cc2[C@H]2COCCN2c2ccn3ncc1c3n2			Sprague-Dawley rat, male, serum	oral, 10 mg/kg/day, end of treatment, 4-week subacute toxicity		serum total protein	57.7 ± 3.5 g/L

A few entries again:
SMILES	tested on	test	system	conditions	how to read	measurement	value
O=C1NC(=O)c2c1c1cc(F)c[n+]3c1c1c2c2cc(O)ccc2[n]1[Ru-4]312([N]=C=S)[S+]3CC[S+]1CC[S+]2CC3 (stereo not drawn)	CAMK1	enzyme activity		100 nM, human enzyme, with: 10 µM ATP	reference: untreated	remaining activity	79%
CC(C)CC(O)(CC(C)C)c1cn(C(=O)N2CCCC2)nn1	Phospholipase DDHD1 (Ddhd1, Mus musculus, UniProt Q80YA3)	probe labelling, inhibitor, competitive ABPP-SILAC, refers to: Ddhd1	mouse T cells	concentration not given, 4 h, protein level	reference: treated over DMSO cells, lower = stronger inhibition	median SILAC activity ratio	1.22
